Published values pooled from the literature.
A part holds a random share of what one study measured.

Sample 1 — technique: protein-binding microarray; form: double-stranded DNA, one strand shown; matrix: in vitro; concentration: 250 nM; notes: 60-bp whole probe; added: salmon DNA 0.4 mg/ml; baseline: random background probes; direction: higher = stronger binding; constant ends, left off below: GCCTAGCAC … GTCTTGATTCGCTTGACGCTGCTG
Target: Interferon regulatory factor 7, full length, phosphomimetic (IRF7, Homo sapiens, UniProt Q92985, residues 1-503, S101K/S471D/S472D/S475D/S476D/S477D/S483D/S484D/S487D)
Target sequence (chain): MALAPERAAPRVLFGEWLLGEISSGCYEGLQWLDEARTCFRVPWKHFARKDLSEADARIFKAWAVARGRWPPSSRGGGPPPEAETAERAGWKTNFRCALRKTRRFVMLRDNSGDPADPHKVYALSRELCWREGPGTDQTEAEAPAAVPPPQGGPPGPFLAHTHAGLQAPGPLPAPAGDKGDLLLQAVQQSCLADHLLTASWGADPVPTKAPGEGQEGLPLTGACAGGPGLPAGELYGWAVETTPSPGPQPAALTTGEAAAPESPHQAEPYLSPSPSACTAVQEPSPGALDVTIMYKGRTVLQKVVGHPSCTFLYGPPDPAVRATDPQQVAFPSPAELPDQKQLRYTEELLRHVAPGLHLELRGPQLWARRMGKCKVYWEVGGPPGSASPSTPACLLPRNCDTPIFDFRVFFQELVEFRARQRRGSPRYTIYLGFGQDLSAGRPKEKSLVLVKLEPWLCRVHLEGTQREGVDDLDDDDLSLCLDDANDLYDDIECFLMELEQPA
| Oligonucleotide | log fluorescence [z-score] |
| --- | --- |
| TTAGGACTGGGGTATCGGTTGGTGCTA | 0.213 |
| TTAGGACTGGGTATCGGTGAGTGCTAG | -0.179 |
| GGCTGTTTGGTCCTGAACCTGTGCTAG | -1.03 |
| GACGGTTGCGGACTGGGGACGTGCTAG | -0.465 |
| TTCGGACTGGGGTATCGGTTAGTGCTA | 0.234 |
| GTAGGACTGGACTTTCGGTTAGTGCTA | 0.051 |
| TTTGGTATCCTTCTCCTTTAGTGCTAG | 0.359 |
| GACGATTTCGGGATTCGAGACGTGCTA | 1.12 |
| TCATTATTTATTTTTACACTGTGCTAG | 0.968 |
| TCAAGTCTCAATATTAGACTGTGCTAG | 0.0523 |
| TCAAATTTTGCTTCTAGACTGTGCTAG | -0.139 |
| GTGAGAAATAAGTTTCTTTTGTGCTAG | 0.564 |
| GACGATTCCAGTGTCGAGACGTGCTAG | 0.0366 |
| CCTTGTCCCCTCAGGTATGGGTGCTAG | 0.819 |
| TCACATTTCCAATTACCACTGTGCTAG | 1.87 |
| GCCGATCTCAGTATCGAGACGTGCTAG | 0.34 |
| GACGAACTGGGGACTGCAGACGTGCTA | -0.416 |
| TTAGGTATCGTACTGCTTTAGTGCTAG | 0.593 |
| GACGGGTTCGGTCTCGGGACGTGCTAG | 0.892 |
| TTAGGACTGGACTTTCCGTTAGTGCTA | -0.301 |
| TGGAACTTAAAAGAAAGATAGTGCTAG | 0.0677 |
| GACGTACTGGACACTGGGGACGTGCTA | -0.243 |
| TTAGATACCGGGTATCGATTAGTGCTA | 1.19 |
| TTAGGACTGAGGTTTCGGTTAGTGCTA | 6.62 |

Sample 2 — technique: RNA Bind-n-Seq; form: RNA; matrix: in vitro; concentration: 200 nM; notes: whole 134-nt RNA, ends assumed; added: 150 mM KCl; baseline: input library; direction: higher = stronger binding
Target: Fragile X messenger ribonucleoprotein 1, C-terminal low-complexity region (Fmr1, Mus musculus, UniProt P35922)
Constant ends, left off below: GGGAGUUCUACAGUCCGACGAUC … UGGAAUUCUCGGGUGUCAAGG
| Oligonucleotide | log2 enrichment |
| --- | --- |
| CUCAAGUCCUGUGCUACACAUCGUAUGUACCGAAUCGUGUGUGUGUGUGUGUGUAAAGUAUUAUGUUACGCCGUUCGGAUCUGCACUUCC | 0.105 |
| UUGCCCUGGUGGCAUGCGGGGAGGAAGAGGUGGCCUCAUGGAUCGUGGUGGUCCCGGUGGAAUGUUCAGAGGUGGCCGUGGUGGAGACAG | -0.0506 |
| CAAGUCCUGUGCUACACAUCGUAUGUACCGAAUCGGGGUUUGGGGUUUGGUUUGGGAAAGUAUUAUGUUACGCCGUUCGGAUCUGCACUU | 0.0833 |
| UCAAGUCCUGUGCUACACAUCGUAUGUACCGAAUCGGAAAGGAAAGGGAAAGGGAAAGUAUUAUGUUACGCCGUUCGGAUCUGCACUUCC | -0.379 |
| CAAGUCCUGUGCUACACAUCGUAUGUACCGAAUCGGUGGUUUUUGGUUUUUUUGGAAAGUAUUAUGUUACGCCGUUCGGAUCUGCACUUC | -0.676 |
| ACCAUGCAGGUGGGCAUCUUUUGGAAGUGGGGCAAGGGGGGGAUAGGGAGGGGGGUAACACUUUGGGAACAGGUGGUCCCAGGUCGUUUC | 0.909 |
| UCAAGUCCUGUGCUACACAUCGUAUGUACCGAAUCGGGUUGGGUUGGGUUGGGGAAAGUAUUAUGUUACGCCGUUCGGAUCUGCACUUCC | 1.43 |
| CACAGACAACACGCACCCACACAGACACAGAGGGAAGGGGUUGGGAUGGGGACAGGGUGCACAGCAGGGCGGGGUAGGACACCAGCCCCU | 1.16 |
| CCUCAAGUCCUGUGCUACACAUCGUAUGUACCGAAUCGGUGGAGGUUUUUGGAAAGUAUUAUGUUACGCCGUUCGGAUCUGCACUUCCAG | 0.151 |
| CACAGACAACACGCACCCACACAGACACAGAGGGAAGGGGUUGGGAUGGGGACAGGGUGCACAGCAGGGCGGGGUAGGACCCAAACCCCU | 1.18 |
| UGGGAGGUGGAUUUUUUUUAUUUUUUUAGCUCAUUUCCAGGGGUGGGAAUUUUUUUUUAAUAUGUGUCAUGAAUAAAGUUGUUUUUGAAA | 0.437 |
| UGGCCCUGGUGGCAUGCGGGGAGGAAGAGGUGGCCUCAUGGAUCGUGGUGGUCCCGGUGGAAUGUUCUGAGGUGGCCGUGGUGGAGACAG | -0.00646 |
| UGGCCCUGGUGGCAUGCGGGGAGGAAGAGGUGGCCUCAUGGAUCGUGGUGGUCCCGGUGGAAUGUUCAGAGGUGGCCGUGGUCGAGACAG | -0.219 |
| ACCAUGCAGGUGGGCAUCUUUGGGAAGUAAAGCAAGGGGGGGAUAGGGAGGGGGGUAACACUUUGGGAACAGGUGGUCCCAGGUCGUUUC | 0.932 |

Sample 3 — technique: protein binding microarray; form: double-stranded DNA, one strand shown; matrix: in vitro; concentration: not given; baseline: not given; direction: higher = stronger binding
Target: Histone acetyltransferase KAT6A, winged helix 2, GST fusion (KAT6A, Homo sapiens, UniProt Q92794, residues 85-181)
Notes: 8-mer, flanks averaged, mean of 2 arrays, mostly near background
Target sequence (chain): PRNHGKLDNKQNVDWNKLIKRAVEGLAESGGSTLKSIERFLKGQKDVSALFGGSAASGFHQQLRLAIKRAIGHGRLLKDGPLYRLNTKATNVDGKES
| Oligonucleotide | E-score |
| --- | --- |
| CATGGTTA | -0.0906 |
| GTTAGAAA | 0.0712 |
| AGTCGCTG | -0.0956 |
| GTGTCCTA | 0.0743 |
| TCACGAGA | -0.0242 |
| CTCTAAGA | -0.0479 |
| AAAGCTTT | -0.269 |
| GTCGGAAC | 0.0043 |
| AGGTGTCA | 0.0394 |
| CATATCAA | 0.0847 |
| CCCCGGGC | 0.223 |
| CATGCTGG | -0.0726 |
| ACCTTCAG | -0.00604 |
| AACGGTCA | -0.016 |
| CTTGACTC | -0.167 |
| CGACCATC | -0.0985 |
| GCTGGGGA | -0.0725 |
| GATCCACC | -0.13 |
| CATTCACC | -0.00897 |
| ATCAGCAG | 0.0496 |
| CCAGACCG | 0.173 |
| CATTCGCC | 0.00959 |
| ATAATCCC | -0.0903 |

Sample 4 — technique: RNA Bind-n-Seq; form: RNA; matrix: in vitro; concentration: 365 nM; baseline: no-protein control; direction: higher = stronger binding
Target: RNA binding protein fox-1 homolog 2, RRM domain, GST-SBP tag (RBFOX2, Homo sapiens, UniProt O43251-10, residues 100-194)
Notes: natural RNA segment, single round, ends assumed
Constant ends, left off below: GGGAGUUCUACAGUCCGACGAUC … UGGAAUUCUCGGGUGCCAA
Target sequence (chain): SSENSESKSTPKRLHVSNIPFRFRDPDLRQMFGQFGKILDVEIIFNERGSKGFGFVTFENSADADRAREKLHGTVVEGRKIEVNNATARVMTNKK
| Oligonucleotide | RBNS enrichment (R) |
| --- | --- |
| AGGUAAAGAAACAUCGUUGAGUAGCCUACCUUGAUUUCUGUCAAGUUCAUAACCAGCUUCAUAUUUUAAAGGCUUCAGGUUUGAAAUUAAGUCAACUGCAUGCAGCUUUG | 10.9 |
| UCAGGGUGUGGUAGCAAAUGCCUAUAAUCCCAGCAUUUAGGAGGCAGGGAUAGGAAUCUCAGGUUCAAGGCUGCCUACAAGUGUCUCAAAAAAGAAAGAACAAAAGAAAG | 0.653 |
| UGGCAUCUGUACCCCACCUCACCCCCGAGAAGUGCUAUUGCUUGCCCUCUGCCUCAGCCCCACUAGGGGAACAACAGGAGGCCUGCUGGGGCUUAGAGUCCGUGCAGGUG | 0.339 |
| UGCUCGUGUGGCUGGAAGCGCUGUCGAUAAGCUUCACGCACUGGCUUGCCAGUUCUUCAGCUCUAGGACUUGUAGCUUUAAGCAAACGGUGUGGCAUGGGUUGAGUGUGG | 0.627 |
| UAUGUGGAAGGUAAAAAUAGUGGUGUGAUCAUGAACCAAAGGAAUUUAUGUUUUGUAACUUGGGUACUUUAUUUUGCAUUUUGUUAUACUAUUAAAUAAUUUUUUCCUGU | 1.38 |
| AAUACAUUUCUUAAAGUUGAAAUCAUUUGCUUCUUCCAUAAUGGGACGUUGAAACUUCUGCUUUCGGAACAGCGUGUGUUGGAAAGCUUGUUUGAGAAUGGCUACUAGAG | 22.1 |
| AUGAUUCAAACAUCUACCCCUGUUCUGAAUCAGGAUGUUGACACUUCUUGGUUAUUUUCAGAUGAACAGUAACUGCUACACUCUUGAAAGCACUUAAAAGUGCAAGCAUG | 2.17 |
| AGGUCAUAUUUUAACUCUUUAUAGGAAAUGCCUUUAACACAAGUGACUGUAGGUGACUUUCUUGUGCAGUAUUGUGACUCCCAAGAGUGACUGUAGGAUGGUUUGAACGA | 1.98 |
| UACUUCUUUUCUUUUUGCAUUAUCUUGUUUUGGUUUUGUGCUGUAAUAGAAGUUCACUUAGCUACUUUAGAUAACCUUGCAUUACCACUGGUCUGGCCACGUUUGUUAAA | 1.6 |
| UAAAGUACACAUGAUGUAUUCAGUGCUGCAAGAGUGUUUGAAAUGAGCACACUGCCUCAUUUUCCUCACCAACAAGACAAAGCCUUUCCAAUGAUUUUUUUUUAAACUUU | 0.529 |
| UCAUUGACAGAGGAGGAAACAGGCCAAGGCAGGACAUGGCUGGACCAUGGUGAUACAGCUCUGUGUGAUUCAAGUUCUGGCAGAGCUUGUAAGGCUAGAGCCCAGGUCUG | 0.446 |
| GUGCAAUCAGCUUUCAUUUCCUUUUUCUUGAAAACAUACGACUAUAUAGAAAGAAAGACAAUAAGAACACGAGAAACGCCCCCCCCCACCCCCCGGCAUCCUGGAGAGCA | 8.35 |
